Results pooled from the literature.
A part holds a random share of what one study measured. Changes are numbered by the printed parent chain.
Chain of UniProt O15294 (whole entry, looked up): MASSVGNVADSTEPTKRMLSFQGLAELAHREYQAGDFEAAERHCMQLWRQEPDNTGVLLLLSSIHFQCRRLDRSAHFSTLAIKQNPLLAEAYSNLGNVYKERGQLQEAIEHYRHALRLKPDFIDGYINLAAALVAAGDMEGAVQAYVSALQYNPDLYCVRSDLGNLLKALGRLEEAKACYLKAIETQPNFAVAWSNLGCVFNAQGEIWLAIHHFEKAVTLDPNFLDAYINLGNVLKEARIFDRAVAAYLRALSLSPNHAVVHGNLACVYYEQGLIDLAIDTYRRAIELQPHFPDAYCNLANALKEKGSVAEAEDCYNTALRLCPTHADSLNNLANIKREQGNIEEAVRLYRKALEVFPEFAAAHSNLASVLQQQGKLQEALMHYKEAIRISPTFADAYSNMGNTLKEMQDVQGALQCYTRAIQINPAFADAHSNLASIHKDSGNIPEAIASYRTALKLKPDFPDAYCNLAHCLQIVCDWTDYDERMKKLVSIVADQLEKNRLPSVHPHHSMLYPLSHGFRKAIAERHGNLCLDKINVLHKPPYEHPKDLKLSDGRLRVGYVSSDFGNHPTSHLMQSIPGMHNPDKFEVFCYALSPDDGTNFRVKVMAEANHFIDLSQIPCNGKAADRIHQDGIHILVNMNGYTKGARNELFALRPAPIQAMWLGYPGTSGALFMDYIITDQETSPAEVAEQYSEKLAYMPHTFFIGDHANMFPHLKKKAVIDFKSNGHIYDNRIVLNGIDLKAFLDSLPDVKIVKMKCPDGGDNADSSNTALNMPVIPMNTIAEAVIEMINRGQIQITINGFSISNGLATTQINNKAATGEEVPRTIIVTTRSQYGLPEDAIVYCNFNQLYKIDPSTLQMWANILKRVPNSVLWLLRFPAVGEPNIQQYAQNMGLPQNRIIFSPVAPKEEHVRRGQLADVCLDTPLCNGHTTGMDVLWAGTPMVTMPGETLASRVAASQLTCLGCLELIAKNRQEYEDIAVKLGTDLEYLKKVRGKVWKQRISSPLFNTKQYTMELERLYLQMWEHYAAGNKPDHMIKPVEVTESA

Sample 1
Target: RING finger protein unkempt homolog, zinc fingers 1-6, GST-SBP tag (UNK, Homo sapiens, UniProt Q9C0B0, residues 30-357)
Chain of UniProt Q9C0B0 (30-357, looked up): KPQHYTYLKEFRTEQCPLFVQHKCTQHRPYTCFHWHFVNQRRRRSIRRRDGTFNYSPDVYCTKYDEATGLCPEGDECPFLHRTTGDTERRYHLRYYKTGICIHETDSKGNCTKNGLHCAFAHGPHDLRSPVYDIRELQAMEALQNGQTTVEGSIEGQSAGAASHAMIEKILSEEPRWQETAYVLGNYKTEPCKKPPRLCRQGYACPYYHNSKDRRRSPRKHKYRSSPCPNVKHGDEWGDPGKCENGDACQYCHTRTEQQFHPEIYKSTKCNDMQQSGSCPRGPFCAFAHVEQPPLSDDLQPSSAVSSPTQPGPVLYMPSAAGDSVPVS
Technique: RNA Bind-n-Seq
Molecule type: RNA
Matrix: in vitro
Concentration: not given
Notes: RNA with constant flanks, human-mouse chimeric sites, ends assumed
Relative to: input RNA pool
Direction: higher = stronger binding
Constant ends, left off below: GGGAGUUCUACAGUCCGACGAUC … CAACAGAGGAUUGAGCAUCA
Sequence | bound/input enrichment [ratio]
UCCCAAAUUAUAAGGCAAGAAGGAGCCUUGAGACAAACACUCCACACACAGGGAAGGCAAUAGCUUUGUACAUUGGUUUACAUUUUUUCCCCCUGUGGAUUUUUCUAGAGGUCAUAGUGC | 0.499
CUCAUGGCUGCAGAAACAGGAAGUGGAAAAACUGGUGCAUUUAGUAUUCCAGUUAUCCAGAUAGUGUAUGAAACUCUGAAAGACCAACAGGAAGGAAAGAAAGGGAAAACAACAAUUAAA | 1.15
UAAAUUAGGGCUGCCGUUUUCUGUUUCGCCCUGAGCUGCGGAAAGCCAGAAGAUUUUAUCUAGCUUAUACAAGGCUGCUGGUGUUCCCUCCCUCCCGCCACGAGGGUGUUUUUGGCUGCA | 0.532
UCCUUGGACCCCAGUCAUAUAGGUGACCUGCAAAAAGCAGACACCAGUAGUCAAGGUGCUUUAGUGUUUCUCUCAAAGGACUACGAGAUAGAAAGUCAAAAUCCCCUGGCCUCUCCUACG | 1.27
UAAAUUAGGGCUGCCGUUUUCUGUUUCUCCCUGGGCUGCGGAAAGCCAGAAGAUUUUAUCUAGUUUGAACCAGGCUGCUGGUGUUCCCUCUUUUUUUCCACGAGGGUGUUUUUGGCUGCA | 0.891
GACUUUGGGACUGGUCCUCGCAACGCAGCCUUCUAUAGCCCUCAUGGACAUAUAUUAGUAUUAGCUGGAUUUGGAAAUCUUCGAGGACAAAUGGAAGUAUGGGAUGUUAAAAACUACAAG | 0.649
CAGACUGUGUCAUACUUUUUAGACAUUCACAUCAGACUUACAGAGCACCUGGCCACAUUCUAGGUUUGUGUUAUUUCUCAGCUAUGGAUAUGAUCAAAGAGUGAAAAUGCUUAACUAAUG | 0.51
AACUUUGUGCAUCGGUUUCCUUUUGUAGCUGUUUCAAUUGGCUUCCUUGUGAAUAAAGAGAUGGAGUUUGGAAUUGUGUACAGCUGUGUGGAAGAUAAGAUGUACACCGGCAGGAAAGGG | 0.382

Sample 2
Target: Sal-like protein 4, full length isoform A (SALL4, Homo sapiens, UniProt Q9UJQ4, residues 1-1053)
Chain of UniProt Q9UJQ4 (whole entry, looked up): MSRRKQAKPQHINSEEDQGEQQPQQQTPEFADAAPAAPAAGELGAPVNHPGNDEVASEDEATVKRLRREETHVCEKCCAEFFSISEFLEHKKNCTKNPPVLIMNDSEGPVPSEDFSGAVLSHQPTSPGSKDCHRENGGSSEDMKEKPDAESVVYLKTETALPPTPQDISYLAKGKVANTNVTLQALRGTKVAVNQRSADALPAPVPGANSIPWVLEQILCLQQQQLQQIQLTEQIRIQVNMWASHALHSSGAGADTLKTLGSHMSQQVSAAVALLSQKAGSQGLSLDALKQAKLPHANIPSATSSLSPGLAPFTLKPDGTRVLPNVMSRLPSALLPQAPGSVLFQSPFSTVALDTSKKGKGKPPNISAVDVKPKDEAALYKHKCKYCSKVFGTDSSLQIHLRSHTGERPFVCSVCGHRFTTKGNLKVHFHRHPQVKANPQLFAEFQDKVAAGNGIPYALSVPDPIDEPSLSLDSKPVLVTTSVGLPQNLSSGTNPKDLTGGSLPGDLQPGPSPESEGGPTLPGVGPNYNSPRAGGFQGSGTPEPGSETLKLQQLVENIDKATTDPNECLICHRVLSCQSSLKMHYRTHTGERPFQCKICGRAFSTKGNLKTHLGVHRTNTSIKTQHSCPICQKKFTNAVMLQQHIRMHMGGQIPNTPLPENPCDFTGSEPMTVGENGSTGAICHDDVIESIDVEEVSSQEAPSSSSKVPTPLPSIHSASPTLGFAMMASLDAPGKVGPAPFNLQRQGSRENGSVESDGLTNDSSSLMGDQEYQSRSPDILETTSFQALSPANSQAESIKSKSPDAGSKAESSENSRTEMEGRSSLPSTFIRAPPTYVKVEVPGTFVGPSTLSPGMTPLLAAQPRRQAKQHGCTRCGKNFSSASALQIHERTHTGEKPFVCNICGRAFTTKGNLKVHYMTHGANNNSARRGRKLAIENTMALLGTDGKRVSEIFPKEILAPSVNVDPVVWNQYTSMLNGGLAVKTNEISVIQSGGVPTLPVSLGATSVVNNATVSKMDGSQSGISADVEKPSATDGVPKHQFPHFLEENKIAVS
Technique: universal PBM
Molecule type: double-stranded DNA, one strand shown
Matrix: in vitro
Concentration: 600 nM
Notes: 8-mer, flanks averaged, mean of replicates
Direction: higher = stronger binding
Sequence | E-score
CAGCCCTA | -0.205
GGCGCCAC | -0.42
CTGGCTAC | -0.129
GTCCCGAC | -0.248
AGAGAACG | 0.0258
GTAGATAA | 0.314
ACGGAGAT | -0.125
GGTGCAAC | -0.31

Other studies, line by line
P1: PafA, mature enzyme, eGFP fusion (Elizabethkingia meningoseptica, UniProt Q9KJX5); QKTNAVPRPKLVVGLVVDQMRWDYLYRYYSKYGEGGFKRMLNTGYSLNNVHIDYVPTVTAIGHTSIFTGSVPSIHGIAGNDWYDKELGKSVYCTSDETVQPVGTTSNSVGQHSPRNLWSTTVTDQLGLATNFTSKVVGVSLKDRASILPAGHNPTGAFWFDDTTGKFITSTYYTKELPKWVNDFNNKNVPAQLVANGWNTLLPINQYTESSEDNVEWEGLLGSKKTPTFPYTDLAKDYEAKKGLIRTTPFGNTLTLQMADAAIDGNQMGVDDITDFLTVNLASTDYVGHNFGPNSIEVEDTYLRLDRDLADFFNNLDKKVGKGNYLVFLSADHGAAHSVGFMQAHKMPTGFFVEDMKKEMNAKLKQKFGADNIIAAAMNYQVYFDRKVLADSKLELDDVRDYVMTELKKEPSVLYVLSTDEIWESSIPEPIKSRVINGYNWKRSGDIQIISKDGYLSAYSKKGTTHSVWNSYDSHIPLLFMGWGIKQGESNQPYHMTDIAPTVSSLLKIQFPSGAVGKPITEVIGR
Molecule | target | test | test system | setting | scale | measurement | value
PhoQ, residues 284 288 289 292 302 303 SCKMEA | PhoP, residues 12 14 15 18 19 NYFTV (Escherichia coli, UniProt P23836) | Sort-seq, item: YFP reporter | E. coli | PhoQ-PhoP variant library, with: 10 µM Mg2+ | relative to: high Mg2+ state, higher = stronger signaling | fold induction | 8.84
ESHQYSFKPMYQIVI | OGT (Homo sapiens, UniProt O15294) | binding, phage display NGS | peptide | panning round 2 | relative to: input library | minimum log2 enrichment ratio | 4.53
P1 N42V | inorganic phosphate, free oxyanion | microfluidic competitive inhibition | in vitro, cell-free expressed | not given, derived from inhibition constants, unchanged parent 615000 nM | lower = stronger binding | phosphate dissociation constant | 659 µM

For quick reference, copied from above (sample 2):
Sequence | E-score
GTCCCGAC | -0.248
CAGCCCTA | -0.205
